Results from different studies.
Parts stem from different laboratories: compare values within a part only.

Set 1
Target: Histone acetyltransferase KAT6A, winged helix 1, GST fusion (KAT6A, Homo sapiens, UniProt Q92794, residues 1-85)
Method: protein binding microarray
Molecule type: double-stranded DNA, one strand shown
Matrix: in vitro
Tested at: not given
Notes: 8-mer, flanks averaged, mean of 2 arrays, mostly near background
Reference: not given
Direction: higher = stronger binding
Target sequence (chain): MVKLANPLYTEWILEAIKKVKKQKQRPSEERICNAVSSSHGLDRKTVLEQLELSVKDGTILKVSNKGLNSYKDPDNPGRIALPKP
Oligonucleotide | E-score
TATCTTGA | -0.057
ACGGATCT | 0.0309
CTTGTTCC | -0.0816
AGACTCTG | -0.329
ACATCGTG | -0.0165
CGAATAAC | 0.068
CCACGCGG | 0.327
CATTAGGG | -0.0927
TAGTTATA | -0.0805

Set 2
Target: Interferon regulatory factor 7, full length, phosphomimetic (IRF7, Homo sapiens, UniProt Q92985, residues 1-503, S471D/S472D/S475D/S476D/S477D/S483D/S484D/S487D)
Method: protein-binding microarray
Molecule type: double-stranded DNA, one strand shown
Matrix: in vitro
Tested at: 2200 nM top
Notes: 60-bp whole probe
Together with: salmon DNA 0.4 mg/ml
Reference: random background probes
Direction: higher = stronger binding
Shared flanks, not repeated: GCCTAGCAC … GTCTTGATTCGCTTGACGCTGCTG
Residues (chain): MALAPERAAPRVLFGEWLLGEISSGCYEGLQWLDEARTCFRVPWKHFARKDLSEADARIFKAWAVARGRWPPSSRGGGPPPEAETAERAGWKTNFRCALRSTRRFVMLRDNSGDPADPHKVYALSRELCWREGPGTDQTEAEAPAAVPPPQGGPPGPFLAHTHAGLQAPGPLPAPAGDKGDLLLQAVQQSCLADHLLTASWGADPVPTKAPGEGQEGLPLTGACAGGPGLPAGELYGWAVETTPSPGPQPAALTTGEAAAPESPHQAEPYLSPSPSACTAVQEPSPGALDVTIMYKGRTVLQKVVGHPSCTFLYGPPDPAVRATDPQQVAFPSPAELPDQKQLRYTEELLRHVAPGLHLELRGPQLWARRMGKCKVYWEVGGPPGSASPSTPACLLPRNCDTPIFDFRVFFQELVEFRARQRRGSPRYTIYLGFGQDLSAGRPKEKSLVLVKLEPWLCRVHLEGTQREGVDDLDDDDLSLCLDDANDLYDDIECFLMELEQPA
Oligonucleotide | fitted relative affinity [z-score]
GACGGTTTCGGCCTGGGGACGTGCTAG | 3.28
GACGATTCCGGGTATCGAGACGTGCTA | 0.897
GACGATTTAGGGACTGGAGACGTGCTA | -0.179
GACGGACTGCGACTGGGGACGTGCTAG | -0.834
TCAGATCTCCGAGATGCCACTGTGCTA | 0.51
GACGGTTTGGGTCTCGGGACGTGCTAG | 0.462
TTAGGTTTCGACACTGGCTTAGTGCTA | 2.07
GATGAACTGAGACTGGAGACGTGCTAG | -0.291

Set 3
Target: Prothrombin, mature alpha-thrombin (F2, Homo sapiens, UniProt P00734)
Method: aptamer microarray, sandwich
Molecule type: DNA with 2'F-ANA
Matrix: in vitro
Tested at: 200 nM
Notes: whole 15-mer aptamer, many near background
Together with: Cy3 exosite-II aptamer, 400 nM
Direction: higher = stronger binding
Oligonucleotide: GGTTGGTGTGGTTGG
Modification | mean fluorescence intensity [a.u.]
2'F-ANA at 3 4 6 7 8 10 11 13 15 | 212
2'F-ANA at 2 4 6 7 8 9 14 15 | 528
2'F-ANA at 1 4 5 6 8 10 11 | 49.4
2'F-ANA at 1 2 7 8 9 10 14 15 | 48
2'F-ANA at 2 4 5 6 7 11 12 14 15 | 94.1
2'F-ANA at 1 2 3 5 8 9 10 12 13 15 | 49.4
2'F-ANA at 6 9 10 11 14 15 | 98.7
2'F-ANA at 1 2 9 10 11 12 14 15 | 53.5

Further values, each from its own experiment
Molecule | target | assay | test system | conditions | scale | endpoint | result
PhoQ, residues 284 288 289 292 302 303 TLSLKA | PhoP, residues 12 14 15 18 19 NYFTV (Escherichia coli, UniProt P23836) | Sort-seq, item: YFP reporter | E. coli | PhoQ-PhoP variant library, together with: 10 µM Mg2+ | reference: high Mg2+ state, higher = stronger signaling | fold induction | 2.33

Excerpt of the above (set 3):
Modification | mean fluorescence intensity [a.u.]
2'F-ANA at 3 4 6 7 8 10 11 13 15 | 212
2'F-ANA at 6 9 10 11 14 15 | 98.7
